Measurements from different studies.
Protocols differ between the studies behind these lines. Values joined by “and” are separate records of one study, mostly repeats; a detail may differ. ± gives the spread as reported.

Cc1[nH]c(/C=C2\C(=O)Nc3ccccc32)c(C)c1CCC(=O)O  AUC(0-t) (Japanese patients, plasma; oral, 1200 mg/m^2, day 8): 32900 ± 16200 ng·h/mL
CC(C)=CCC[C@](C)(O[C@@H]1O[C@H](CO)[C@@H](O)[C@H](O)[C@H]1O)[C@H]1CC[C@]2(C)[C@@H]1[C@H](O)C[C@@H]1[C@@]3(C)CC[C@H](O[C@@H]4O[C@H](CO)[C@@H](O)[C@H](O)[C@H]4O)C(C)(C)[C@@H]3CC[C@]12C  AUC(0-t) (LC-MS/MS; healthy female volunteers, serum; oral, 3 g red ginseng): 8.7 ± 2.61 ng·h/mL
Cc1ccc(NC(=O)c2ccc(CN3CCN(C)CC3)cc2)cc1Nc1nccc(-c2cncc(-c3oncc3C)c2)n1  AUC(0-t) (healthy volunteers, plasma; oral, 200 mg once daily, day 1, 7-day dosing, mean): 87200 ng·h/mL
CC(C)=CCC[C@](C)(O[C@@H]1O[C@H](CO)[C@@H](O)[C@H](O)[C@H]1O)[C@H]1CC[C@]2(C)[C@@H]1[C@H](O)C[C@@H]1[C@@]3(C)CC[C@H](O[C@@H]4O[C@H](CO)[C@@H](O)[C@H](O)[C@H]4O[C@@H]4O[C@H](CO)[C@@H](O)[C@H](O)[C@H]4O)C(C)(C)[C@@H]3CC[C@]12C  AUC(0-t) (LC-MS/MS; healthy male volunteers, serum; oral, 3 g fermented red ginseng): 168 ± 75 ng·h/mL
C=C(C)[C@@H]1CC[C@]2(NCCN3CCS(=O)(=O)CC3)CC[C@]3(C)[C@H](CC[C@@H]4[C@@]5(C)CC=C(C6=CC[C@@](CF)(C(=O)O)CC6)C(C)(C)[C@@H]5CC[C@]43C)[C@@H]12  AUC(0-t) (healthy adults, plasma; oral, 200 mg once daily, day 7, steady state, moderate-fat meal, added: dolutegravir 50 mg): 27800 ng·h/mL
CC1Cc2ccccc2N1NC(=O)c1ccc(Cl)c(S(N)(=O)=O)c1 (stereo not shown)  AUC(0-t) (healthy Chinese volunteers, plasma; oral, 1.25 mg, up to 48 h, fasting, added: perindopril tert-butylamine 4 mg): 254 ± 83.8 ng·h/mL
CS(=O)(=O)c1ccc([C@@H](O)[C@@H](CF)NC(=O)C(Cl)Cl)cc1  AUC(0-t) (chicken, HY-Line Brown hens, plasma; oral, 20 mg/kg): 24200 ± 2450 ng·h/mL
CNC(=O)c1ccc(-c2cnc3ncc(Cc4ccc5ncccc5c4)n3n2)cc1F  AUC(0-t) (normal hepatic function; oral, 200 mg, mean): 6930 ng·h/mL
NC(=O)c1cnc2[nH]ccc2c1N[C@@H]1[C@@H]2CC3C[C@H]1C[C@@](O)(C3)C2  AUC(0-t) (healthy Japanese men, plasma; oral, 60 mg, single dose fasted): 776 ng·h/mL
C#C[C@]1(O)CC[C@H]2[C@@H]3CCC4=CC(=O)CC[C@@H]4[C@H]3CC[C@@]21CC  AUC(0-t) (HIV-positive women, control arm, serum; oral, 150 µg with ethinylestradiol, 72 h, steady state): 243 ± 83 ng·h/mL
O=C(O)C[C@H](O)C[C@H](O)/C=C/c1c(C2CC2)nc2ccccc2c1-c1ccc(F)cc1  AUC(0-t) (healthy Chinese male volunteers, plasma; oral, 2 mg once daily, multiple dose): 289 ng·h/mL
COc1cc2c(cc1OC)CN(CCc1ccc(NC(=O)c3cc(OC)c(OC)cc3NC(=O)c3cnc4ccccc4c3)cc1)CC2  AUC(0-t) (human, plasma; intravenous infusion, 8 mg/kg, up to 24 h post-infusion): 16600 ng·h/mL and 18800 ng·h/mL and 21800 ng·h/mL and 14800 ng·h/mL
O=C(N[C@H]1CCN(CC2CC2)C[C@@H]1C(=O)NC1(c2ncccn2)CC1)c1cc(-c2ccc(F)cc2F)on1  AUC(0-t) (healthy male subjects; oral, 10 mg, fed, geometric mean, added: itraconazole 200 mg multiple doses): 862 ng·h/mL

Some of these lines once more:
C=C(C)[C@@H]1CC[C@]2(NCCN3CCS(=O)(=O)CC3)CC[C@]3(C)[C@H](CC[C@@H]4[C@@]5(C)CC=C(C6=CC[C@@](CF)(C(=O)O)CC6)C(C)(C)[C@@H]5CC[C@]43C)[C@@H]12  AUC(0-t) (healthy adults, plasma; oral, 200 mg once daily, day 7, steady state, moderate-fat meal, added: dolutegravir 50 mg): 27800 ng·h/mL
Cc1ccc(NC(=O)c2ccc(CN3CCN(C)CC3)cc2)cc1Nc1nccc(-c2cncc(-c3oncc3C)c2)n1  AUC(0-t) (healthy volunteers, plasma; oral, 200 mg once daily, day 1, 7-day dosing, mean): 87200 ng·h/mL
